Published values pooled from the literature.
Several values in a cell are separate wells, animals, samples, runs or records. ± marks the error that the study gave.
GAP50: Glideosome-associated protein 50 (GAP50, Plasmodium falciparum, UniProt Q8I2X3)
UniProt Q8I2X3, sequence (whole entry, looked up): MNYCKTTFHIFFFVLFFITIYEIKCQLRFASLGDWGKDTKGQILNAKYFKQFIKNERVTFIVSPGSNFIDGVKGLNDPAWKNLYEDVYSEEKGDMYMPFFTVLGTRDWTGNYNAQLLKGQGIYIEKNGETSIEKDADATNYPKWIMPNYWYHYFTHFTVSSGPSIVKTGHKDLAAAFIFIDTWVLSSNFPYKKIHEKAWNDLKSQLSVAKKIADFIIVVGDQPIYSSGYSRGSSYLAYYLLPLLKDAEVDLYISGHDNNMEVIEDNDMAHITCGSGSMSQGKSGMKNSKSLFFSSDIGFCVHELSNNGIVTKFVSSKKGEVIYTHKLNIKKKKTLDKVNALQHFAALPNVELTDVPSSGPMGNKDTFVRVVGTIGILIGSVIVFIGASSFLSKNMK
BRD9: Bromodomain-containing protein 9 (BRD9, Homo sapiens, UniProt Q9H8M2)
UniProt Q9H8M2, sequence (whole entry, looked up): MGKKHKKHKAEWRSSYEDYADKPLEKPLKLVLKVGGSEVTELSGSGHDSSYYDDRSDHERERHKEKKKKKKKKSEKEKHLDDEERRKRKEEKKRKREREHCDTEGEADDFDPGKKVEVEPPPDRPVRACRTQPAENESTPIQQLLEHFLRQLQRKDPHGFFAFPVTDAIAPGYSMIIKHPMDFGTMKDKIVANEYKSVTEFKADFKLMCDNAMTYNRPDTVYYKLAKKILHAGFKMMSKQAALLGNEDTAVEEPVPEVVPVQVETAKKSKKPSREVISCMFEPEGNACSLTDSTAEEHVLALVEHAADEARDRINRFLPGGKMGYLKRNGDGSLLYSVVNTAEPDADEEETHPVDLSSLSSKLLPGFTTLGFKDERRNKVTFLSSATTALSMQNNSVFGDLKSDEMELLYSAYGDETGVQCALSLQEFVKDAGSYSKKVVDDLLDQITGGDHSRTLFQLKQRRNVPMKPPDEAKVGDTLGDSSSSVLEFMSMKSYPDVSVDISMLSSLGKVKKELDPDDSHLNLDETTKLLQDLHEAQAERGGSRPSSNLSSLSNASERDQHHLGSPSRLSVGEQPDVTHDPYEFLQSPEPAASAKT
Peptidyl-prolyl cis-trans isomerase FKBP1B: Peptidyl-prolyl cis-trans isomerase FKBP1B (Homo sapiens, UniProt P68106)
UniProt P68106, sequence (whole entry, looked up): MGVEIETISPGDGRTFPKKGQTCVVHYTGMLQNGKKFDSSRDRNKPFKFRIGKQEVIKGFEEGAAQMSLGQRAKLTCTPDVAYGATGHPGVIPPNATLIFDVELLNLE
bglA: bglA (Thermotoga maritima, UniProt Q08638)
UniProt Q08638, sequence (whole entry, looked up): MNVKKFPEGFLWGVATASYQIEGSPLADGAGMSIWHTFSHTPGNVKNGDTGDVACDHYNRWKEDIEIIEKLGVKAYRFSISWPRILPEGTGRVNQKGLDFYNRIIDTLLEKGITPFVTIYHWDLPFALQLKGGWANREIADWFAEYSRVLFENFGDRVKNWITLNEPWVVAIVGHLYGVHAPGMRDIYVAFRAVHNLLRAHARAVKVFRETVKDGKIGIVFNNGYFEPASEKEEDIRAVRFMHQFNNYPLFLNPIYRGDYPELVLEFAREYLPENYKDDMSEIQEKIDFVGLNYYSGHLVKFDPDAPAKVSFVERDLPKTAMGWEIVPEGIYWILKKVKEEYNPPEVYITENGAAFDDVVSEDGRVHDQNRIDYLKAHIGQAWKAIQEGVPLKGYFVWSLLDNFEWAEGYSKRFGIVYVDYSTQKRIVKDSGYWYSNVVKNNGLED
clpP: ATP-dependent Clp protease proteolytic subunit (clpP, Escherichia coli, UniProt P0A6G7)
UniProt P0A6G7, sequence (whole entry, looked up): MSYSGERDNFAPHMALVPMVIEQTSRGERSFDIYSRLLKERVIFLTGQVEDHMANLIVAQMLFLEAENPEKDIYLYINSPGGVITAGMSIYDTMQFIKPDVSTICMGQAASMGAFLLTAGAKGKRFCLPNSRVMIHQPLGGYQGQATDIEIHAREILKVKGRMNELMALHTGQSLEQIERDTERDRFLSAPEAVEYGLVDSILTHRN
UniProt P20813, sequence (whole entry, looked up): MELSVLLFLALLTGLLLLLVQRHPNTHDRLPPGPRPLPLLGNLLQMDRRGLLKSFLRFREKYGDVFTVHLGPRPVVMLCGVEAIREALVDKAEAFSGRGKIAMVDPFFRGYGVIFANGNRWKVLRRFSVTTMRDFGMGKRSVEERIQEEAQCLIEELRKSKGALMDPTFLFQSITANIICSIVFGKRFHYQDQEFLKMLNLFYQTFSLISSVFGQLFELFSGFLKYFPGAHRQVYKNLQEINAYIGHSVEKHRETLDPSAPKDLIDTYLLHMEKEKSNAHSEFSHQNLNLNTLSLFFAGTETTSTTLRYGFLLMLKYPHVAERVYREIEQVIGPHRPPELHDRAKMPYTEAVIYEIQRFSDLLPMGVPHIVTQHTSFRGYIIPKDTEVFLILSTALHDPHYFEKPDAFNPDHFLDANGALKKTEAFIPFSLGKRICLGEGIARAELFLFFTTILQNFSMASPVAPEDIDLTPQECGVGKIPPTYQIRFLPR
UniProt Q9SZU7, sequence (whole entry, unmodified, looked up): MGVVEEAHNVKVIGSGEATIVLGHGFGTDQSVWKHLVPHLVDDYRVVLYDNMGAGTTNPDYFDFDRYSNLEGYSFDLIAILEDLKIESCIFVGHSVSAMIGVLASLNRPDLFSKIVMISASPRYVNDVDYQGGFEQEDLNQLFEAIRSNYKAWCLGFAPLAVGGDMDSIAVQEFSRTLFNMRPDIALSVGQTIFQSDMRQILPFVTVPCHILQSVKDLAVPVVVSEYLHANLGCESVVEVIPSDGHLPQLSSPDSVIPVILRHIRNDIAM
UniProt P32320, sequence (whole entry, looked up): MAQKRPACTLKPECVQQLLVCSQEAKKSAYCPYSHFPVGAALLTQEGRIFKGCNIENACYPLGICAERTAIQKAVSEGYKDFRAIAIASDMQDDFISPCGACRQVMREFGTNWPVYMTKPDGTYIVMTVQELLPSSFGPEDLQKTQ
UniProt Q9UBN7, sequence (whole entry, looked up): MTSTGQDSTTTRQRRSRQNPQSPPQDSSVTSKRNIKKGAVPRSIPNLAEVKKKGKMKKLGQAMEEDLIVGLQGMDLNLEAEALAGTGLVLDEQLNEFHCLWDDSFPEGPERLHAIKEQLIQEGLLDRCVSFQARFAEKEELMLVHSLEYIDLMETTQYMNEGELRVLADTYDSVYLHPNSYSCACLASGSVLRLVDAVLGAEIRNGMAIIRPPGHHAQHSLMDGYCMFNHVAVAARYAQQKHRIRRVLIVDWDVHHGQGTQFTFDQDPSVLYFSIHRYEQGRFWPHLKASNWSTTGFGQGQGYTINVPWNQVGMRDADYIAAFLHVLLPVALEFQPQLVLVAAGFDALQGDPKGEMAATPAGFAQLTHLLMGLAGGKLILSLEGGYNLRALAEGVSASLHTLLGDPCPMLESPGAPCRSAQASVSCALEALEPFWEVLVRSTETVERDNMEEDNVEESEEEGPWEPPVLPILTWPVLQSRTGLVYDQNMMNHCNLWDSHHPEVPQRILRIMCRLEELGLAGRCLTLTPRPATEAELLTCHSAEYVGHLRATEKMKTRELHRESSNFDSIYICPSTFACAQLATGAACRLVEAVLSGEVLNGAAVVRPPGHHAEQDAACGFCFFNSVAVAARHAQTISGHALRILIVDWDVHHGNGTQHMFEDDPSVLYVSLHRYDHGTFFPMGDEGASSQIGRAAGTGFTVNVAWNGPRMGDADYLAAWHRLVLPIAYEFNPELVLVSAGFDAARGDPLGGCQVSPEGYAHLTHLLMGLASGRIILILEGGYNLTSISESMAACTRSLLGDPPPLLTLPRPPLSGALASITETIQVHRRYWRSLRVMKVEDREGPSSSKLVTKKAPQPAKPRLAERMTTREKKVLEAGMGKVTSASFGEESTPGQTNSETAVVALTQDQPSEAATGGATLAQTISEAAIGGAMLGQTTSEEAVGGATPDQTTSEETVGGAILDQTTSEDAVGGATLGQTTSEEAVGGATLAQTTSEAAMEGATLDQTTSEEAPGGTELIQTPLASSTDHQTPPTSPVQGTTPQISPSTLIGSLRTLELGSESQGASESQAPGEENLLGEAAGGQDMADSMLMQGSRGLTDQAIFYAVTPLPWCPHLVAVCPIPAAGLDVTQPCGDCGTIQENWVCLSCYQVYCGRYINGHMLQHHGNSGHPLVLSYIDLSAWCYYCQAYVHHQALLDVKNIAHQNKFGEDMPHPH
UniProt P02754, sequence (whole entry, looked up): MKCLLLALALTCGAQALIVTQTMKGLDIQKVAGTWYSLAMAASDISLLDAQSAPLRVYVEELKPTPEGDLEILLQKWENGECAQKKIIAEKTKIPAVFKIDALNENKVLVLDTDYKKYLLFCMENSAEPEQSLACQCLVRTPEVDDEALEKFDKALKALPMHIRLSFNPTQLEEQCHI
UniProt Q969S8, sequence (whole entry, looked up): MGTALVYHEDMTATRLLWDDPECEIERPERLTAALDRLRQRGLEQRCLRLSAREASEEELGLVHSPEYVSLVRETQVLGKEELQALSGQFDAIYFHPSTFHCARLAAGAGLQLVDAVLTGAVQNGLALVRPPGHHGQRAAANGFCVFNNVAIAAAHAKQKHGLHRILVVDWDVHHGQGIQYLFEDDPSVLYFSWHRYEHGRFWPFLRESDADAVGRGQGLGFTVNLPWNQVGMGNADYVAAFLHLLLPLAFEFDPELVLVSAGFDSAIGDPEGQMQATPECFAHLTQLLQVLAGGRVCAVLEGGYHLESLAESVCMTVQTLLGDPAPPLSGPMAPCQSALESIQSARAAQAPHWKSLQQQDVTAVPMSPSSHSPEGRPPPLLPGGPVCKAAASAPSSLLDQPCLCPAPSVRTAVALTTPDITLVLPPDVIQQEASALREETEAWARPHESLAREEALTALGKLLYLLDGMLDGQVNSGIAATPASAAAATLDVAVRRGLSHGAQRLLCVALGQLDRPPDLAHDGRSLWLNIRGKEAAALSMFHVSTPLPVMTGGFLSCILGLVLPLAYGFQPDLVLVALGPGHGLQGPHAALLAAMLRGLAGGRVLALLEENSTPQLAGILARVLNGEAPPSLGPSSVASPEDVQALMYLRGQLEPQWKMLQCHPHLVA

SMILES	tested on	assay	test system	conditions	how to read	quantity	result
CCOC(=O)c1ccc2c(c1)C1CC(C)(N2)c2c(C)nc3ccc(C(=O)OCC)cc3c21 (stereo not drawn)	GAP50	binding, surface plasmon resonance	–	1:1 binding model	–	Kd	1440 nM
OC[C@H]1[C@@H](O)[C@H](O)[C@@H](O)CN1CCCCOCCC12CC3CC(CC(C3)C1)C2	GBA1 (Homo sapiens, UniProt P04062, R534H)	inhibitor, 4MU-β-D-glucopyranoside	–	added: 4MU-β-D-glucopyranoside	–	IC50	33900 nM
CCc1nc2cc3ccccc3cc2cc1C(=O)N1CCC[C@H]1C(=O)N[C@@H](CCC/C=C/CCC[C@H](NC(=O)[C@@H]1CCCN1C(=O)c1cc2cc3ccccc3cc2nc1CC)C(=O)N[C@@H](CCCCN)C(=O)NCCCN)C(=O)N[C@@H](CCCCN)C(=O)NCCCN	(CUG)4 RNA	SPR	–	–	–	Kd	51 nM
CN1CCCNC(=O)c2cccc(c2)C(=O)NCCCN(C)CCCNc2cccc3c2C(=O)c2cccc(c2C3=O)NCCC1	mouse bone marrow cells	CCK-8	–	0.15 µM, 48 h	reference: untreated	viability	98.5%
CCCCCc1ccc(Cc2cc(/C=C/C(=O)OC)cc3cccnc23)cc1	GAP50	binding, surface plasmon resonance	–	1:1 binding model	–	Kd	9510 nM
CC1=C[C@H](O)CC(C)(C)[C@H]1/C=C/C(C)=C/C=C/C(C)=C/C=C/C=C(C)/C=C/C=C(C)/C=C/C1=C(C)C[C@@H](O)CC1(C)C	Beta-lactoglobulin (LGB, Bos taurus, UniProt P02754)	binding, ITC	–	–	–	Kd	89500 nM
CC(=O)NCC1CCCCN1c1nc(NCCn2nnc(C)n2)nc(N2CC3C(CCOc4cc(-c5scnc5C)ccc4CNC(=O)[C@@H]4C[C@@H](O)CN4C(=O)[C@@H](NC(=O)C4(F)CC4)C(C)(C)C)C3C2)n1 (stereo partly drawn)	BRD9	binding, SPR	–	–	–	Kd	> 20000 nM
C=CC1CN(Cc2ccccn2)C(=O)C2CCCC1N2S(=O)(=NC1C=CCCC1)c1cc(Cl)cc(Cl)c1 (mixture of isomers)	Peptidyl-prolyl cis-trans isomerase FKBP1B	ligand displacement, FP	–	–	–	Kd	3990 nM
Cc1nn(-c2cccc(N)c2)c(=O)c2cnc(Nc3ccc(N4CCNCC4)cc3)nc12	CDC42BPB (Homo sapiens, UniProt Q9Y5S2)	SelectScreen kinase	–	–	–	IC50	> 10000 nM
CSCC[C@@H]1NC(=O)[C@@H]2CSCCC(=O)N3CN(CN(C3)C(=O)CCSC[C@H](N)C(=O)N3CCC[C@H]3C(=O)N[C@@H](Cc3cccc4ccccc34)C(=O)N[C@H](CC(=O)O)C(=O)N2)C(=O)CCSC[C@@H](C(N)=O)NC(=O)[C@H](Cc2c[nH]c3ccccc23)NC(=O)[C@@H]2C[C@@H](O)CN2C(=O)[C@@H]2CCCN2C(=O)[C@H]([C@@H](C)O)NC(=O)[C@H](CO)NC(=O)[C@H](Cc2c[nH]c3ccccc23)NC(=O)[C@H](CC(=O)O)NC(=O)[C@H](CCCCNC(=N)N)NC1=O	Nectin-4 (Homo sapiens, UniProt Q96NY8)	binding, SPR	–	–	–	Kd	0.694 nM
CNC(=O)C1CCCN(C(=O)C2CC3CCC2N3C(=O)[C@@H]2C[C@@H](O)CN2C(=O)NCc2cccc(Cl)c2F)C1 (mixture of isomers)	Cytochrome P450 2B6 (CYP2B6, Homo sapiens, UniProt P20813)	preincubation without NADPH	human	50 µM	reference: negative control	remaining activity	102% and 106%
Nc1ncc(-c2cc(-c3cnn(CC(F)(F)F)c3)ncc2F)nc1C(=O)NC1CNCC(F)C1 (stereo not drawn)	SIK	KINOMEscan competition binding	–	1 µM	reference: DMSO control	remaining binding	92%
C=CC(=O)Nc1cccc(Cn2ncc3cnc(Nc4cnn(CCOC)c4)nc32)c1	PRP4 human	binding, KINOMEscan	–	100 nM	lower = stronger binding	percent of control	23%
OC[C@@H]1[C@@H](O)[C@H](O)[C@@H](O)c2nccn21	bglA	binding, ITC	–	pH 6.8	–	Kd	140 nM
Cc1ncsc1-c1ccc(CNC(=O)[C@@H]2C[C@@H](O)CN2C(=O)[C@@H](NC(=O)C2(F)CC2)C(C)(C)C)c(OCCC2CN(c3nc(NCC(C)(C)C4(O)CCOC4)nc(N4CCC[C@H]4Cn4ccnn4)n3)C2)c1 (stereo partly drawn)	BRD9	binding, SPR	–	–	–	Kd	9700 nM
COC1CN([C@H]2CC[C@H]([C@@]3(C)Oc4c(Cl)cc(C(=O)NCc5c(SC)cc(C)[nH]c5=O)c(C)c4O3)CC2)C1	–	RNA-seq, measured: RELN mouse homolog	mouse, HT-1376 xenograft, whole blood	dose not given	reference: vehicle	log2 fold change	1.71
C=CC1CN(Cc2ccccn2)C(=O)C2CCCC1N2[S+]([O-])c1cc(Cl)cc(Cl)c1 (stereo not drawn)	Peptidyl-prolyl cis-trans isomerase FKBP1B	ligand displacement, FP	–	–	–	Kd	211 nM
C#CCN1CCN(c2nc(N3CCN(c4ccc(Cc5cc(CNC(=O)[C@@H]6C[C@@H](O)CN6C(=O)[C@@H](NC(=O)C6(F)CC6)C(C)(C)C)c(O)cc5-c5scnc5C)cc4)CC3)nc(N3CCN(C(=O)C4CC4)C3)n2)CC1=O	BRD9	binding, SPR	–	–	–	Kd	455 nM
CCCC/C=C/C(=O)N[C@@H](Cc1cc(F)cc(F)c1)C(=O)N[C@@H]1C(=O)N2CCC[C@H]2C(=O)N2CC[C@H](C)C[C@H]2C(=O)N[C@@H](C)C(=O)N2CCC[C@H]2C(=O)O[C@H]1C	clpP	peptidase activity, activator	–	30 °C, added: fluorogenic decapeptide 15 µM	–	Kd	1100 ± 60 nM
Cc1cc(=O)[nH]c(-n2nc(-c3cccs3)cc2NC(=O)C2(c3ccc(Cl)cc3)CCCC2)n1	Cystic fibrosis transmembrane conductance regulator, NBD1 (CFTR, Homo sapiens, UniProt P13569, F494N)	surface plasmon resonance	–	immobilized NBD1	–	Kd	40000 nM
O=C(NO)c1cnc(NC2(c3cccc(F)c3)CCCCC2)nc1	HDAC6 (Homo sapiens, UniProt Q9UBN7)	inhibitor, competition pulldown	SW620 and MV4-11 lysate	1 h	–	Kd	394 nM

SMILES	tested on	assay	test system	conditions	how to read	quantity	result
CC(=O)NCCN(c1nc(N2CC3C(CCOc4cc(-c5scnc5C)ccc4CNC(=O)[C@@H]4C[C@@H](O)CN4C(=O)[C@@H](NC(=O)C4(F)CC4)C(C)(C)C)C3C2)nc(N2CC(n3ccnc3)C2)n1)C(C)C (stereo partly drawn)	BRD9	binding, SPR	–	–	–	Kd	> 20000 nM
Cc1ccc2c(c1)C1CC(C)(N2)c2c(C)nc3ccc(C)cc3c21 (stereo not drawn)	GAP50	binding, surface plasmon resonance	–	1:1 binding model	–	Kd	757000 nM
CC(=O)NCC1CCCCN1c1nc(N(C)CCc2ncc(C)s2)nc(N2CC3C(CCOc4cc(-c5scnc5C)ccc4CNC(=O)[C@@H]4C[C@@H](O)CN4C(=O)[C@@H](NC(=O)C4(F)CC4)C(C)(C)C)C3C2)n1 (stereo partly drawn)	BRD9	binding, SPR	–	–	–	Kd	> 20000 nM
CCCC/C=C/C(=O)N[C@@H](Cc1cc(F)cc(F)c1)C(=O)N[C@H]1COC(=O)[C@@H]2CCCN2C(=O)[C@H](C)NC(=O)[C@@H]2C[C@@H](C)CCN2C(=O)[C@@H]2CCCN2C1=O	clpP	peptidase activity, activator	–	30 °C, added: fluorogenic decapeptide 15 µM	–	Kd	3000 ± 100 nM
Cc1cccc2c1N(C(=O)n1ccnn1)CC2	KAI2 (Arabidopsis thaliana, UniProt Q9SZU7, F194A)	ITC	–	F194A mutant	–	Kd	556000 nM and 329000 nM
CNS(=O)(=O)Nc1nccc(Cc2c(C)c3ccc(Oc4ncccc4F)cc3oc2=O)c1F	T3M4	cell viability	–	7 days	–	IC50	4.96 nM
C=CC1CN(Cc2ccccn2)C(=O)C2CCCC1N2S(=O)(=O)c1cc(Cl)cc(Cl)c1 (stereo not drawn)	Peptidyl-prolyl cis-trans isomerase FKBP1B	ligand displacement, FP	–	–	–	Kd	6.9 nM
Cc1ncsc1-c1ccc(CNC(=O)[C@@H]2C[C@@H](O)CN2C(=O)[C@@H](NC(=O)C2(F)CC2)C(C)(C)C)c(OCCC2CCN(c3nc(NCC(C)(C)C4(O)CCOC4)nc(N4CCC[C@H]4Cn4ccnn4)n3)CC2)c1 (stereo partly drawn)	BRD9	binding, SPR	–	–	–	Kd	2500 nM
CCCC[C@H](NC(C)=O)C(=O)N[C@@H](CO)C(=O)N[C@H](C(=O)N1CCC[C@H]1C(=O)N[C@]1(C)CCCCCCC=CCCC[C@@](C)(C(=O)N[C@@H](Cc2ccccc2)C(=O)N[C@@H](CCCCN)C(=O)N[C@@H](CCCNC(=N)N)C(=O)N[C@@H](CC(C)C)C(=O)N[C@@H](CCC(N)=O)C(N)=O)NC(=O)[C@H](CCCNC(=N)N)NC(=O)[C@H](CCCC)NC(=O)[C@H](CC(C)C)NC(=O)[C@H](CCCNC(=N)N)NC(=O)[C@H](CCCNC(=N)N)NC(=O)[C@H](CCCNC(=N)N)NC1=O)[C@@H](C)O	proteinase K	LC-MS	–	25 µM, 492.1 min, pH 7.4	–	remaining peptide	46.2%
O[C@@H](COc1ccc2cc(Br)ccc2c1)Cn1ccnc1	Trypanosoma cruzi	reporter mRNA translation, inhibitor, measured: Renilla luciferase mRNA	cell-free extract	concentration not given, test 1	reference: positive over negative control	translation activity	103%
Cn1ncc2cc(-c3cncc(Cl)c3N3CCC4(CCNC4=O)CC3)ccc21	Cytidine deaminase (CDA, Homo sapiens, UniProt P32320)	cell-free assay	–	lysate	–	Kd	> 8240 nM
Cc1ncsc1-c1ccc(C(C)NC(=O)C2CC(O)CN2C(=O)C(NC(=O)CCCCCCCCCCN2CCCC(Nc3ncc(Cl)c(Nc4ccccc4S(=O)(=O)C(C)C)n3)C2)C(C)(C)C)cc1 (stereo not drawn)	22Rv1	RNA-seq, measured: ZKSCAN4 mRNA	–	concentration not given	reference: DMSO	log2 fold change	-1.52
OC[C@H]1c2[nH]cnc2[C@H](O)[C@@H](O)[C@@H]1O	bglA	binding, ITC	–	pH 6.8	–	Kd	28300 nM
COc1ccc2c(c1)C1CC(C)(N2)c2c(C)nc3ccc(OC)cc3c21 (stereo not drawn)	GAP50	binding, surface plasmon resonance	–	1:1 binding model	–	Kd	3840 nM
C#CCN1CCN(c2nc(N3CCC(CCOc4cc(-c5scnc5C)ccc4CNC(=O)[C@@H]4C[C@@H](O)CN4C(=O)[C@@H](NC(=O)C4(F)CC4)C(C)(C)C)CC3)nc(N3CCN(C(=O)C4CC4)C3)n2)CC1=O	BRD9	binding, SPR	–	–	–	Kd	1040 nM
CCCC/C=C/C(=O)N[C@@H](Cc1cc(F)cc(F)c1)C(=O)N[C@@H]1C(=O)N2CCC[C@H]2C(=O)N(C)[C@@H](C)C(=O)N[C@@H](C)C(=O)N2CCC[C@H]2C(=O)O[C@H]1C	clpP	peptidase activity, activator	–	30 °C, added: fluorogenic decapeptide 15 µM	–	Kd	1300 ± 100 nM
C=CC(=O)N1CCCN(C(=O)c2cc(Sc3cnc(NC(=O)C4CC4)s3)c(C)cc2OC)C[C@H]1C	JAK3 (Homo sapiens, UniProt P52333)	binding, competition with immobilised ligand	–	–	–	Kd	2800 nM
COc1ccc(C(=O)NO)cc1NC(=O)c1ccc(-c2ccccc2)cc1	HDAC10 (Homo sapiens, UniProt Q969S8)	inhibitor, competition pulldown	SW620 and MV4-11 lysate	1 h	–	Kd	672 nM
Cc1c[nH]c2nccc(-c3ccc(C(=O)N[C@@H]4c5c(F)cc(C(F)F)cc5C[C@@H]4O)cn3)c12	PRKCE (Homo sapiens, UniProt Q02156)	binding, competition with immobilised ligand	–	–	–	Kd	1010 nM
O=C1C2CCCC(C(C(O)CO)CN1Cc1ccccn1)N2S(=O)(=Nc1ccccc1)c1cc(Cl)cc(Cl)c1 (stereo not drawn)	Peptidyl-prolyl cis-trans isomerase FKBP1B	ligand displacement, FP	–	–	–	Kd	23600 nM
CCc1nc2cc3ccccc3cc2cc1C(=O)N1CCC[C@H]1C(=O)N[C@@H](C/C=C\C[C@H](NC(=O)[C@@H]1CCCN1C(=O)c1cc2cc3ccccc3cc2nc1CC)C(=O)N[C@@H](CCCCN)C(=O)NCCCN)C(=O)N[C@@H](CCCCN)C(=O)NCCCN	(CUG)4 RNA	SPR	–	–	–	Kd	19 nM

Excerpt of the above:
SMILES	tested on	assay	test system	conditions	how to read	quantity	result
C#CCN1CCN(c2nc(N3CCN(c4ccc(Cc5cc(CNC(=O)[C@@H]6C[C@@H](O)CN6C(=O)[C@@H](NC(=O)C6(F)CC6)C(C)(C)C)c(O)cc5-c5scnc5C)cc4)CC3)nc(N3CCN(C(=O)C4CC4)C3)n2)CC1=O	BRD9	binding, SPR	–	–	–	Kd	455 nM
CCCC/C=C/C(=O)N[C@@H](Cc1cc(F)cc(F)c1)C(=O)N[C@@H]1C(=O)N2CCC[C@H]2C(=O)N2CC[C@H](C)C[C@H]2C(=O)N[C@@H](C)C(=O)N2CCC[C@H]2C(=O)O[C@H]1C	clpP	peptidase activity, activator	–	30 °C, added: fluorogenic decapeptide 15 µM	–	Kd	1100 ± 60 nM
Cc1cc(=O)[nH]c(-n2nc(-c3cccs3)cc2NC(=O)C2(c3ccc(Cl)cc3)CCCC2)n1	Cystic fibrosis transmembrane conductance regulator, NBD1 (CFTR, Homo sapiens, UniProt P13569, F494N)	surface plasmon resonance	–	immobilized NBD1	–	Kd	40000 nM
O=C(NO)c1cnc(NC2(c3cccc(F)c3)CCCCC2)nc1	HDAC6 (Homo sapiens, UniProt Q9UBN7)	inhibitor, competition pulldown	SW620 and MV4-11 lysate	1 h	–	Kd	394 nM
CC(=O)NCCN(c1nc(N2CC3C(CCOc4cc(-c5scnc5C)ccc4CNC(=O)[C@@H]4C[C@@H](O)CN4C(=O)[C@@H](NC(=O)C4(F)CC4)C(C)(C)C)C3C2)nc(N2CC(n3ccnc3)C2)n1)C(C)C (stereo partly drawn)	BRD9	binding, SPR	–	–	–	Kd	> 20000 nM
